# Measured values gathered from unrelated publications.
# Parts stem from different laboratories: compare values within a part only. Substitutions count along the parent as printed.

# Block 1 — method: DHFR PCA, deep sequencing; matrix: yeast; added: (+)-ABA 0 µM; baseline: wild-type fitted maximum; reading: higher = stronger binding
# Target: ABI1, truncated, D143A, DHFR fusion (Arabidopsis thaliana)
# Setting: methotrexate growth selection, single substitutions
# Starting sequence: PYL1, truncated, DHFR fusion (Arabidopsis thaliana); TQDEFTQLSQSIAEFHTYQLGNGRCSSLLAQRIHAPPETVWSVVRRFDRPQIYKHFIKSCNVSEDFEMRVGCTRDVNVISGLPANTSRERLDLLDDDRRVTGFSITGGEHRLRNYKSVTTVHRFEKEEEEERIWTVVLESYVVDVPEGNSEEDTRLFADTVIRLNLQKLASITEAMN; partner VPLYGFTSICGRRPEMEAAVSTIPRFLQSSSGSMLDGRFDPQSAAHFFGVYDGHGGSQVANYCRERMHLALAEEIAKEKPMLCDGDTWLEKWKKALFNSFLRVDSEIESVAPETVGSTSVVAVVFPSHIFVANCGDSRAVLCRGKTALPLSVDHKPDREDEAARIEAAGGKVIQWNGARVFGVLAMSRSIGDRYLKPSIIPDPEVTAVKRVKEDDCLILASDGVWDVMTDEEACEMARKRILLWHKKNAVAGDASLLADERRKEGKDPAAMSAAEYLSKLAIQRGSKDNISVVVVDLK
Variant,relative binding score
V118Q,-8.28%
F66E,1.37%
H55F,8.02%
R155S,-0.83%
T39M,30.4%
R163D,-1.54%
T154D,-9.46%
Q51N,-16.4%
M176L,9.37%
S26N,3.66%
R46N,-3.35%
R113L,16.5%
A158K,-11.7%
T106P,-4.59%
Y53H,8.97%
T73G,1.95%

# Block 2 — target: UBE2E3 UBC core domain (UniProt Q969T4); method: yeast two-hybrid; matrix: yeast; setting: mostly zero background; baseline: not given; reading: higher = stronger interaction
# Sequence of UniProt Q969T4 (whole entry, looked up): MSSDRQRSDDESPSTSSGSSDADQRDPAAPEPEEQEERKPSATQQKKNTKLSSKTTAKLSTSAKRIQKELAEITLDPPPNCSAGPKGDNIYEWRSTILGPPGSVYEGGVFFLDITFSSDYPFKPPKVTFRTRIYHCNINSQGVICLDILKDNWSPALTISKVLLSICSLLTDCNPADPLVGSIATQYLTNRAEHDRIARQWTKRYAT
# B1: IRF2BPL RING domain (UniProt Q9H1B7); chain SPMANSGPLCCTICHERLEDTHFVQCPSVPSHKFCFPCSRESIKAQGATGEVYCPSGEKCPLVGSNVP
# B2: CUL9 RING domain (UniProt Q8IWT3); chain AQAVPVRPDHCPVCVSPLGCDDDLPSLCCMHYCCKSCWNEYLTTRIEQNLVLNCTCPIADCPAQPTGAFIR
# B3: TRIM63 RING domain (UniProt Q969Q1); chain PMENLEKQLICPICLEMFTKPVVILPCQHNLCRKCANDIFQAANPYWTSRGSSVSMSGGRFRCPTCRHEVIMDRHGV
# B4: TRIM72 RING domain (UniProt Q6ZMU5); chain APGLLHQELSCPLCLQLFDAPVTAECGHSFCRACLGRVAGEPAADGTVLCPCCQAPTRPQALST
Molecule,lacZ reporter activity
B1 (IRF2BPL RING domain),0
B2 (CUL9 RING domain),0
EDEVSDNSAECVVCLSDVRDTLILPCRHLCLCNTCADTLRYQANNCPICRLPFRALLQIR (RNF157 RING domain (UniProt Q96PX1)),0
QLQDIKEQTMCPVCLDRLKNMIFLCGHGTCQLCGDRMSECPICRKAIERRILLY (MIB1 RING domain (UniProt Q86YT6)),0
PEELQAMDNVCIICREEMVTGAKRLPCNHIFHTSCLRSWFQRQQTCPTCRMDVLRASLPA (SYVN1 RING domain (UniProt Q86TM6)),0
DAIPSLSECQCGICMEILVEPVTLPCNHTLCKPCFQSTVEKASLCCPFCRRRVSSWTRYH (RNF168 RING domain (UniProt Q8IYW5)),0
QHHELTSLFECPVCFDYVLPPILQCQAGHLVCNQCRQKLSCCPTCRGALTPSIRNL (SIAH2 RING domain (UniProt O43255)),0
B3 (TRIM63 RING domain),0
B4 (TRIM72 RING domain),0
YWAMDSTFELCKICAESNKDVKIEPCGHLLCSCCLAAWQHSDSQTCPFCRCEIKGWEAVS (CBLC RING domain (UniProt Q9ULV8)),0
FPEHFVKSISCQICEHILADPVETNCKHVFCRVCILRCLKVMGSYCPSCRYPCFPTDLES (RAG1 RING domain (UniProt P15918)),0

# Block 3 — method: universal PBM; molecule type: double-stranded DNA, one strand shown; matrix: in vitro; tested at: not given; reading: higher = stronger binding
# Target: Sal-like protein 4, full length isoform B (SALL4, Homo sapiens, UniProt Q9UJQ4-2, residues 1-616)
# Setting: 8-mer, flanks averaged, mean of replicates
Strand,E-score
GATGCTCA,-0.131
ATTGTAGA,0.25
ATTTGAGG,0.0784
GCGACGAA,-0.0478
TAACATGA,0.162
ACGCCTCG,-0.292
GGGCCGAC,-0.326
AGTAAATC,0.139
GAGCGACA,-0.0913
CCTTCGGA,-0.239
AAACAAGG,-0.0786
TAGTCTAA,-0.0226
CAGTCCCA,-0.164
CAGGAGCG,-0.119
ACCAGATC,-0.279
ATGAGTAC,0.208
ATTAGCCA,0.0487
CAACATTC,-0.0896
ATAGAGTG,0.0768
GTCCTGCA,-0.128
AAGAGAGC,-0.174
AGTTCAGC,-0.196
AAAGCCCT,-0.0499
GTCTTTCA,0.0632

# Block 4 — method: competition protein-binding microarray; molecule type: double-stranded DNA, one strand shown; matrix: in vitro; tested at: 2 µM; added: Pho4 competitor, 0.05 µM; reading: higher = stronger binding; shared flanks, not repeated: … GTCTTGATTCGCTTGACGCTGCTG
# Target: Centromere-binding protein 1, full length, His-tagged (CBF1, Saccharomyces cerevisiae, UniProt P17106, residues 1-351)
# Sequence of UniProt P17106 (whole entry, looked up): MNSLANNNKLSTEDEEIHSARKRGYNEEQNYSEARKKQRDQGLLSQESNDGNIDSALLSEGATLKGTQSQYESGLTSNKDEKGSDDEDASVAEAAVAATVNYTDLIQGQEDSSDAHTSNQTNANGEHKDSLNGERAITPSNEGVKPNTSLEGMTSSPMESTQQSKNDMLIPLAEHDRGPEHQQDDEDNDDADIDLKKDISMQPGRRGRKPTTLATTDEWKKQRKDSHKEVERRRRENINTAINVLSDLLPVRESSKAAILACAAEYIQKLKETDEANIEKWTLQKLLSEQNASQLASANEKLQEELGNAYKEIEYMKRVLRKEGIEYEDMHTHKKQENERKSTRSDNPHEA
# Setting: whole 60-bp probe, lowest competitor level
Strand,fluorescence intensity [a.u.]
TCTCGGTTGTTCAAGGTCGTGCTAACCATATGGCAT,67
CGGGGTTAAGTTTGTCACGGGACTTGCTTGCAGCAG,1330
TGCGCAACAACTTGATAAGTGGGTGTATGTCTAGAA,70.2
CTAACGAAGGTTTGCGCAGTGGGTGACAAGCCAAGT,77.9
ATTGTAGAATTTACCCACGTCTGTCCATCAAGAAGA,76.8
CAATTCTTCGGGCGTCACATGACAAATATATAGGGA,3000
GGATCTGCCTATGCCTTCGTGGGTAATCTCTTACTC,52.3
CTTGCGATTCCTCTCCTCGTGAGAGGAGATACCGTT,89
CTTTCCCGATCTTTTCACGTGTGATTAGCACATTTG,615
CTGTCGGCCCAGTTCCACGTTCATCGCAACTATCAA,72.9
TATCAAAAGTACCAACACGGGGAAAGAGAGCCATCC,68.2
TGCGCAACAACTTGCCGGGTGGGTGTATGTCTAGAA,56
CTAACGAAGGTTTGCGTGGTGGGTGACAAGCCAAGT,66.8
GATTATTGGCCAAGTACCGTGACGGTGGTAAGATTG,141
TCAAACAGCACAGTCTACATGACGCCTGGTGATTTG,63.3
CTTCTGTAAATTTGACGGGTGGGTGGACGCGCCCCG,73.9

# Block 5 — method: RNA Bind-n-Seq; molecule type: RNA; matrix: in vitro; tested at: not given; baseline: input RNA pool; reading: higher = stronger binding
# Target: RING finger protein unkempt homolog, zinc fingers 1-6, GST-SBP tag (UNK, Homo sapiens, UniProt Q9C0B0, residues 30-357)
# Sequence of UniProt Q9C0B0 (30-357, looked up): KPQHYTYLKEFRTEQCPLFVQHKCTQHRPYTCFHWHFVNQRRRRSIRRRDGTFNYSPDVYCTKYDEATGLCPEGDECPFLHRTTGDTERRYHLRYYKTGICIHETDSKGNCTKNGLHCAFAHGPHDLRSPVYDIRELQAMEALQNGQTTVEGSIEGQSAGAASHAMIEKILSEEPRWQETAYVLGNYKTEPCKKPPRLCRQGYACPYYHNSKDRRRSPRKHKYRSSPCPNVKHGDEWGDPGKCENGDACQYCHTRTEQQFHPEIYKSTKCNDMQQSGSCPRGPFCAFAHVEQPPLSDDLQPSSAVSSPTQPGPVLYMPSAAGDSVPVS
# Setting: RNA with constant flanks, human and mouse sites, ends assumed
# Shared flanks, not repeated: GGGAGUUCUACAGUCCGACGAUC … CAACAGAGGAUUGAGCAUCA
Strand,bound/input enrichment
AGCACAUCGUCGUUUUGGGGGAAGUCUACAACUACUCCUGUGAACCAGAUCCAAGAAACAAUUUCUAACAAUUGUGUGGUGAUCUUCUCAAAAACAUCCUGCUCUUACUGUUCCAUGGCC,0.13 ratio
GAGUUUCCAGACAAGGUUUUUGCUGAGAAGUGGAAUGAAAAUGUUCAGUAUCUCUCAGAAGAUAGAAGUGUGCAAGAAGUACUACAGAAGCAUUUCAAUAUCAGCAAAAACCUGCGGUCA,0.134 ratio
ACAGCCAUUGCUUUCAAAGAGAUUAUUACUGUGUAUUCUCCCUGUUUUACAAUAUGUUUUCAUGAAGACUAUGUUACACCAGAGGCUUCUGAUUAUCAAAGUGAUAACCAGUUUUAACUG,0.107 ratio
ACAGGGCUAGGCCUCCGCUUCUGGCUUUGGGUUUUUUCUGUUGUUGUUGGUUUUUUUUUUUUUUUUUAAAUCUCCACCCCCAUCCGCGGGCGGCAUCGCUGCGCGCGCGCGCGCGCGCUC,0.781 ratio
AGGCCAUUGAUGCAUCUUUCCGACUGUAUGUUCUGUGUAUAAUGCUGUUCUUGGUGCUAAAUAGACUUUCUUUCCUCUGAUAUUCAGGAUAAUUUUUCUCUAUACUUCUGUUCACUUGUU,0.865 ratio
GAAGUCAUUGUAUUUGAUUGGACAGAUUUUUGCCAAUACCUAUUUCUUUCUAUAAAUAAUGGAUUUUUAAAAAAAACAAAAACAAAAACAUACUCAUUGCAUGGCUCCUGGACCCGUCUU,0.58 ratio
GCCUUGGUCCUAGCACCCACUCGAGAAUUGGCUCAGCAGAUACAGAAGGUGGUCAUGGCACUAGGAGACUACAUGGGCGCCUCCUGUCACGCCUGUAUCGGGGGCACCAACGUGCGUGCU,0.135 ratio
AAAUGCCCCUGGAAGGAAUACAAAUCAGAUUCUGGAAAGCCUUACUAUUAUAAUUCUCAAACAAAAGAAUCUCGCUGGGCCAAACCUAAAGAACUUGAGGAUCUUGAAGCAAUGAUCAAA,0.277 ratio
GAGUUUACGAGGAAACCCGUUGGUUGUUCGUUUUGUUAGAGAUUUAACGUAUGACCCUCCGACUCUUCUGGAAUUAGCUGCAAGGACCAUUAAGAUCCGAAGUAUUUCUUACACUCCCUA,0.641 ratio
UCAUUUUUCUCUUUUCUUUCUUUCCUUUAGGAAAAGCCUAAAGAUUAGGUUGUAAGAAAAACAGAAGCCAUGUUUCGAAGACCUGUGUUACAGGUAUUUCGUCAGUUUGUAAGACAUGAG,0.184 ratio
AGUGGCCUACAAAUCCAGAGACACAGCUAUAAAGACCUAGCAAGAUGCAAGGCUGCCAGCAUCUUUGCUCUCCACCUCCUGCCUCUGCUUAUUUCUUGUUCUGGAACUAAAUGAACAGAA,0.416 ratio

# Excerpt of the above (block 2):
Molecule,lacZ reporter activity
B1 (IRF2BPL RING domain),0
B2 (CUL9 RING domain),0
EDEVSDNSAECVVCLSDVRDTLILPCRHLCLCNTCADTLRYQANNCPICRLPFRALLQIR (RNF157 RING domain (UniProt Q96PX1)),0
QLQDIKEQTMCPVCLDRLKNMIFLCGHGTCQLCGDRMSECPICRKAIERRILLY (MIB1 RING domain (UniProt Q86YT6)),0
PEELQAMDNVCIICREEMVTGAKRLPCNHIFHTSCLRSWFQRQQTCPTCRMDVLRASLPA (SYVN1 RING domain (UniProt Q86TM6)),0
DAIPSLSECQCGICMEILVEPVTLPCNHTLCKPCFQSTVEKASLCCPFCRRRVSSWTRYH (RNF168 RING domain (UniProt Q8IYW5)),0
QHHELTSLFECPVCFDYVLPPILQCQAGHLVCNQCRQKLSCCPTCRGALTPSIRNL (SIAH2 RING domain (UniProt O43255)),0
B3 (TRIM63 RING domain),0
B4 (TRIM72 RING domain),0
